Assay results from different studies.
Every numbered part comes from another study and shows a few of its results, in no order. Substitutions count along the parent as printed.

Study 1
Target: TAR DNA-binding protein 43, full length, His tag (TARDBP, Homo sapiens, UniProt Q13148, residues 1-414)
Method: RNA Bind-n-Seq
Molecule type: RNA
Matrix: in vitro
Concentration: 20 nM
Notes: 6-mer, flanks averaged, single round
With: 150 mM LiCl
Reference: input library
Direction: higher = stronger binding
| Strand | 6-mer enrichment (R) |
| --- | --- |
| ACGGAG | 0.958 |
| UGUAAC | 0.924 |
| GCUCAC | 0.845 |
| UCGCCU | 0.895 |
| GGACAG | 1.03 |
| CACGAU | 0.806 |
| GCUUUC | 0.92 |
| UGGCAU | 0.964 |
| GUGCGC | 1.19 |
| ACCGAA | 0.808 |

Study 2
Target: CCNB2, cyclin fold, Cln2 fusion (human)
Method: yeast growth competition, sequencing
Matrix: yeast
Notes: weak parent motif
Reference: not given
Direction: higher = stronger binding
Starting sequence: RBL2 docking peptide (human); STTRRRLFVENDS; partner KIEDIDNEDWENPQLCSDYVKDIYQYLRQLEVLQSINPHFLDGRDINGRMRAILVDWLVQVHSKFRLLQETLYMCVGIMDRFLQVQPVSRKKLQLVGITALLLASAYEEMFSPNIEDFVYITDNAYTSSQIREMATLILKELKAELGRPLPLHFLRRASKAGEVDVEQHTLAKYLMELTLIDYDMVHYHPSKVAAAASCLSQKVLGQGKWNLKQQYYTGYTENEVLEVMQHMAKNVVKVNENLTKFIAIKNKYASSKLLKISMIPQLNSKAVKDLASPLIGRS
| Variant | normalised enrichment score |
| --- | --- |
| STTRRRLFHENDS [V9H] | 0.521 |
| STTRRRLFVENRS [D12R] | 0.898 |
| STTRSRLFVENDS [R5S] | 0.432 |
| STTRRRLFVEHDS [N11H] | 0.268 |
| STTRRTLFVENDS [R6T] | 0.0807 |
| STTRRRLFKENDS [V9K] | 0.61 |
| STYRRRLFVENDS [T3Y] | 0.703 |
| STTRRRLFVENCS [D12C] | 0.29 |
| STTRYRLFVENDS [R5Y] | 0.0498 |

Mixed results
| Substance | tested on | assay | system | conditions | scale | endpoint | value |
| --- | --- | --- | --- | --- | --- | --- | --- |
| AXIN1 (Homo sapiens, UniProt O15169) | CALD1 (Homo sapiens, UniProt Q05682) | cross-linking MS | cell fractions | with: DSSO | – | cross-linked residues | K719 to K601 |
| PhoQ, residues 284 288 289 292 302 303 ALSMDL | PhoP, residues 12 14 15 18 19 HEGLL (Escherichia coli, UniProt P23836) | Sort-seq, item: YFP reporter | E. coli | PhoQ-PhoP variant library, with: 10 µM Mg2+ | reference: high Mg2+ state, higher = stronger signaling | fold induction | 6.28 |
| HNRNPA1L2 (Homo sapiens, UniProt Q32P51) | HNRNPAB (Homo sapiens, UniProt Q99729) | cross-linking MS | – | hits only | – | interaction screen | cross-linked |
| PRDX3 (Homo sapiens, UniProt P30048) | MDH2 (Homo sapiens, UniProt P40926) | cross-linking MS | – | hits only | – | interaction screen | cross-linked |
| PDCD11 (Homo sapiens, UniProt Q14690) | EBNA1BP2 (Homo sapiens, UniProt Q99848) | cross-linking MS | cell fractions | with: DMTMM | – | cross-linked residues | E715 to K45 |

A few entries again (study 1):
| Strand | 6-mer enrichment (R) |
| --- | --- |
| GCUUUC | 0.92 |
| GUGCGC | 1.19 |
| GGACAG | 1.03 |
